Measurements collected from several papers.
Every numbered part comes from another study and shows a few of its results, in no order.
Chain of UniProt P11362 (whole entry, looked up): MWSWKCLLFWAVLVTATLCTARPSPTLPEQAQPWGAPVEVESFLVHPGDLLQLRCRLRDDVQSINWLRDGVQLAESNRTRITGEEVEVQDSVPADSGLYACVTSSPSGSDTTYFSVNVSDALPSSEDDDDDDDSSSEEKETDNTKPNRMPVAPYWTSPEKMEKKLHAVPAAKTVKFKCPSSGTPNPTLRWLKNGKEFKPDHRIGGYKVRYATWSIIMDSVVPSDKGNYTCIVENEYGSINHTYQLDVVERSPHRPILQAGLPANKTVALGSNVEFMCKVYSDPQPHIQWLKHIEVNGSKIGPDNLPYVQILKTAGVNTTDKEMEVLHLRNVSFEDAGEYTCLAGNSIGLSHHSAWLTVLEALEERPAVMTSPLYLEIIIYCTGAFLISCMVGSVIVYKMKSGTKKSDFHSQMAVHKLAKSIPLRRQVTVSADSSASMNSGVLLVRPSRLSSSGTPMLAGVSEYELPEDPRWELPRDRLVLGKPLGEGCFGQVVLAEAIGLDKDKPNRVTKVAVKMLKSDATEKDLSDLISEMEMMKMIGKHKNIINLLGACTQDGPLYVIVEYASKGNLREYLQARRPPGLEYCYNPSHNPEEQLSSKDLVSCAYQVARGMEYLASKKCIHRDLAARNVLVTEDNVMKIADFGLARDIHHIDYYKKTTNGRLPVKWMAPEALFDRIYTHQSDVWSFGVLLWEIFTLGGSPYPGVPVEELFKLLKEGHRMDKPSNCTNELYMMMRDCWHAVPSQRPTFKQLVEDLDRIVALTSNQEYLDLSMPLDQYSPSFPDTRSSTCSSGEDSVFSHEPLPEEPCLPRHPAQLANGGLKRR
Chain of UniProt P10398 (whole entry, looked up): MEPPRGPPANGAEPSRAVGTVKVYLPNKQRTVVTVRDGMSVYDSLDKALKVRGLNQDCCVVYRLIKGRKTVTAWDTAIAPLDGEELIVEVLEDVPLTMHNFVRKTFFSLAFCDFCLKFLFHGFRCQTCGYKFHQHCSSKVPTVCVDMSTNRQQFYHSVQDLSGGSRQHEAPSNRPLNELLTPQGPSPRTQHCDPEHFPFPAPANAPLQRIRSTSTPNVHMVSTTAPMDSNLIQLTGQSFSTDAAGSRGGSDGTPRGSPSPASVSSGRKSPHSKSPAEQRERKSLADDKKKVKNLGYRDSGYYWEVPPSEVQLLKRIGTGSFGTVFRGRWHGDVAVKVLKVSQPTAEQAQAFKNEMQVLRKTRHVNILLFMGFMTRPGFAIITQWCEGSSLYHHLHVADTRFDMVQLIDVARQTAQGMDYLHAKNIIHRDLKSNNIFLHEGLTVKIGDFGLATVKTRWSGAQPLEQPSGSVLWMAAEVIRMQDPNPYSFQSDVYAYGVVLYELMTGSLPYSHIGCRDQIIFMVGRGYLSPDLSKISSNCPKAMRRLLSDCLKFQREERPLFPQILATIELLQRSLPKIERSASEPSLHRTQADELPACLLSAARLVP
Chain of UniProt P00519 (whole entry, unmodified, looked up): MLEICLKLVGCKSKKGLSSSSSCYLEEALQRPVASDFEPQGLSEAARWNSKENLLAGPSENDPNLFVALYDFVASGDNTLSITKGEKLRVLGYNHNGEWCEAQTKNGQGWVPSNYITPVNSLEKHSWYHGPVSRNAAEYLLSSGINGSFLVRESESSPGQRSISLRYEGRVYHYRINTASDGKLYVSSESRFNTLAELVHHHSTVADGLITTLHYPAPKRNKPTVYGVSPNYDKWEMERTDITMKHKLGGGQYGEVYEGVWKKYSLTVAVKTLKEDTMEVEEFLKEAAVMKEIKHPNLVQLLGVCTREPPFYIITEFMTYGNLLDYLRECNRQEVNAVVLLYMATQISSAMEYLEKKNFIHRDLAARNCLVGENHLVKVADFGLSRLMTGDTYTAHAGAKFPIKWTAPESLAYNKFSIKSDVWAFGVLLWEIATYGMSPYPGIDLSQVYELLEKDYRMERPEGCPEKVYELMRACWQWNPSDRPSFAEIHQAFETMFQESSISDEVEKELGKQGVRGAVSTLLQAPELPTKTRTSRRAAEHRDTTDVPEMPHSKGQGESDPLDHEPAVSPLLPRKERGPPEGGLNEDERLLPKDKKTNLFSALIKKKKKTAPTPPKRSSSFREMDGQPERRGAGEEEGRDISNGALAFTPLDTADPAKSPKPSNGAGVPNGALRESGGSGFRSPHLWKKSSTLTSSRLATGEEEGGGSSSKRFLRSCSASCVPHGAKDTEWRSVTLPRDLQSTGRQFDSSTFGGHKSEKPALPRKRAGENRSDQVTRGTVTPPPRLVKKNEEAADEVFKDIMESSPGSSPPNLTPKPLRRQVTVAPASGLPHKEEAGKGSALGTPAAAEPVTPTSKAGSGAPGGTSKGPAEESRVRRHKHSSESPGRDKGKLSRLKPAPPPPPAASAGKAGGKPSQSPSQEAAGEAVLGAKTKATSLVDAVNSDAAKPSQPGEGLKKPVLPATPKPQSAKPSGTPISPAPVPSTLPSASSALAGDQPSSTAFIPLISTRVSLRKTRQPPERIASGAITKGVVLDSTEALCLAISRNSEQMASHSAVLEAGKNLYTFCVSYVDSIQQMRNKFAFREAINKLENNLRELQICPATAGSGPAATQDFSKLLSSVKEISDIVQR
Chain of UniProt Q00537 (whole entry, looked up): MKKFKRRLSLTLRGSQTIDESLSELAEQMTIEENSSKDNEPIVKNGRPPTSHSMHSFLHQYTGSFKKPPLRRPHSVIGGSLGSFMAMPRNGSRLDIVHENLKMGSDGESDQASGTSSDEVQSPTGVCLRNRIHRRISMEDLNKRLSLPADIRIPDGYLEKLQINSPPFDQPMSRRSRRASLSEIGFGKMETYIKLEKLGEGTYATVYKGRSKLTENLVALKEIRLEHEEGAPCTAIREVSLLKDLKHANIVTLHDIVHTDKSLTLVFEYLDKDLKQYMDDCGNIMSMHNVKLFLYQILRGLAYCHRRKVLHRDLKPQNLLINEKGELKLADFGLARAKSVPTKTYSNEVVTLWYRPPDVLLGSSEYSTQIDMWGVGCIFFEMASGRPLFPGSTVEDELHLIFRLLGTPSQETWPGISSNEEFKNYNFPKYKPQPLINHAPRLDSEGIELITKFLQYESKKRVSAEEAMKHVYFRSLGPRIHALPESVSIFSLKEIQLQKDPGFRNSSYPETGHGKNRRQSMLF
Chain of UniProt Q9H2K8 (whole entry, looked up): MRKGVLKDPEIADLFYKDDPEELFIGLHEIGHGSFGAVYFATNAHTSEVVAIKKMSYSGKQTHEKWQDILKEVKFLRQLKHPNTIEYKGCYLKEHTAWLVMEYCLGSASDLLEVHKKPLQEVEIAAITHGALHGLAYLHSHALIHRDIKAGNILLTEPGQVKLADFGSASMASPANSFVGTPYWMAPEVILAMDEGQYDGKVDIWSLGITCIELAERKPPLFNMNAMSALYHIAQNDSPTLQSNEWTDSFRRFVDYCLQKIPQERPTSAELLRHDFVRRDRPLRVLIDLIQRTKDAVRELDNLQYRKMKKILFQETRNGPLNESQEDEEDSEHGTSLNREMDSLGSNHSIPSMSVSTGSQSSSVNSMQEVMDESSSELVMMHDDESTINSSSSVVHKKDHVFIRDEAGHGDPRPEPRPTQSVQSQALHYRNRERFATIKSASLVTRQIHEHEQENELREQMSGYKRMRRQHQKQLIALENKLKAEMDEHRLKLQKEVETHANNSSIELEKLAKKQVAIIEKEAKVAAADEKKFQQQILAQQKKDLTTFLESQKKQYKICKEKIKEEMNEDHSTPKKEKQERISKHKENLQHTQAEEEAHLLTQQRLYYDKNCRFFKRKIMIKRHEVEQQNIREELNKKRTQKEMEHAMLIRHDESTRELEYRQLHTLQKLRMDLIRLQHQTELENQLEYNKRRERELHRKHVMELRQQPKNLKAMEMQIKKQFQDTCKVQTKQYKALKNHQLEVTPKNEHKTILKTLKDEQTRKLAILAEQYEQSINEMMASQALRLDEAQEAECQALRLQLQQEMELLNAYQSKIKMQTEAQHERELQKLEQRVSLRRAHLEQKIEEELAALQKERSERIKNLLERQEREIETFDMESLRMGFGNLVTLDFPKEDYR
Chain of UniProt P52333 (whole entry, looked up): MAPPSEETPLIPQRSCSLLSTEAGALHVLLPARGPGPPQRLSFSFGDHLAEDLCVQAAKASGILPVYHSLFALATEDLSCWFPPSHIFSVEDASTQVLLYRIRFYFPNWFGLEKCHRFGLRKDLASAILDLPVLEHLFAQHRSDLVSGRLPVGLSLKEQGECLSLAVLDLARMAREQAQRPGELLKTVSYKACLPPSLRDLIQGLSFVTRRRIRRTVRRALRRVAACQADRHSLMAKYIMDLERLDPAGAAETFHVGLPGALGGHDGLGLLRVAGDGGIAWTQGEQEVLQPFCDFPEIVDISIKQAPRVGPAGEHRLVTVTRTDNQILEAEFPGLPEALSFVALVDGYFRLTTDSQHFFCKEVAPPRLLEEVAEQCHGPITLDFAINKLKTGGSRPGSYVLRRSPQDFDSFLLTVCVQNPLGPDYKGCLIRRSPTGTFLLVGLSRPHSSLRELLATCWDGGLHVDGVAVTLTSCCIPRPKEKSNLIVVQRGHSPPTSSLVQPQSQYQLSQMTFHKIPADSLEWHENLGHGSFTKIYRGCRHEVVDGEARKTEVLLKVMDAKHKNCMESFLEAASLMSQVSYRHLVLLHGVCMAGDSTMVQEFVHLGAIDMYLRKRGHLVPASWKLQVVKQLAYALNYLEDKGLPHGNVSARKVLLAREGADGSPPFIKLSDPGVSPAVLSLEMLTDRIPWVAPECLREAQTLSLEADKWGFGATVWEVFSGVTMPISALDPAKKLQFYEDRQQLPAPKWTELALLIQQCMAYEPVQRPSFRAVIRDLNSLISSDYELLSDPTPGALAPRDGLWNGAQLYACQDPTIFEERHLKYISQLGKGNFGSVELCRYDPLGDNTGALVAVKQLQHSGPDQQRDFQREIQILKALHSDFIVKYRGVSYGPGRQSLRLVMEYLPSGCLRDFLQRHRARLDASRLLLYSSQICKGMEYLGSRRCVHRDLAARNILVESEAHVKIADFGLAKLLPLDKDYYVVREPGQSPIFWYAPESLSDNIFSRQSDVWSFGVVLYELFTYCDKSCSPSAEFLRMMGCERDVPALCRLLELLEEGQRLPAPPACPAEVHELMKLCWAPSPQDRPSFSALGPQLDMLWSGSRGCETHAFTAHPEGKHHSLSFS

Sample 1 — read-out: enzyme activity; mode: inhibitor; concentration: 0.5 µM; baseline: control
Structure (SMILES): Nc1nc(Nc2ccc(S(N)(=O)=O)cc2)nn1C(=S)Nc1c(F)cccc1F
It gave 4.96% for remaining activity (FGFR3 (Homo sapiens, UniProt P22607)).
The remaining activity was 129% (ARAF (Homo sapiens, UniProt P10398)).
The remaining activity was 23.6% (LCK (Homo sapiens, UniProt P06239)).
For FRK (Homo sapiens, UniProt P42685): remaining activity read 70.6%.
The remaining activity was 29.1% (MAP3K14 (Homo sapiens, UniProt Q99558)).
JAK3 (Homo sapiens, UniProt P52333) — remaining activity: 5.21%.
The remaining activity was 14.8% (MERTK (Homo sapiens, UniProt Q12866)).
It gave 6.59% for remaining activity (FGFR1 (Homo sapiens, UniProt P11362)).
The remaining activity was 2.08% (RPS6KA2 (Homo sapiens, UniProt Q15349)).
For WEE1 (Homo sapiens, UniProt P30291): remaining activity read 100%.
For ULK2 (Homo sapiens, UniProt Q8IYT8): remaining activity read 4.73%.
GRK7 (Homo sapiens, UniProt Q8WTQ7) — remaining activity: 96.6%.
The remaining activity was 92.2% (ACVR1B (Homo sapiens, UniProt P36896)).
It gave 5.06% for remaining activity (TEK (Homo sapiens, UniProt Q02763)).

Sample 2 — read-out: cell-free assay; technique: competition with immobilised ligand; concentration: 1 µM
SMILES: O=C(Nc1cccnn1)N1CC(C/C=C/c2cncc(Oc3ccc(C(F)(F)F)cn3)n2)C1
EGFR (Homo sapiens, UniProt P00533, L858R) — remaining binding: 97%.
For HASPIN (Homo sapiens, UniProt Q8TF76): remaining binding read 79%.
It gave 58% for remaining binding (Tyrosine-protein kinase ABL1, non-phosphorylated (ABL1, Homo sapiens, UniProt P00519, F317L)).
TAOK3 (Homo sapiens, UniProt Q9H2K8) — remaining binding: 82%.
The remaining binding was 100% (CDK17 (Homo sapiens, UniProt Q00537)).

Sample 3 — technique: Phase 2a trial; host: idiopathic pulmonary fibrosis patients
SMILES: CC(C)n1cnc(-c2ccc(F)cc2)c1-c1ncc(C(=O)Nc2ccc(N3CCN(C)CC3)cc2)[nH]1
refers to: neutrophil count increased; 30 mg once daily, grade 2 maximum intensity — “patients with adverse events”: 0%.
For refers to: tri-iodothyronine increased; 30 mg once daily, grade 5 maximum intensity: “patients with adverse events” read 0%.
The “patients with adverse events” was 0% (refers to: muscular weakness; 30 mg once daily, grade 3 maximum intensity).
It gave 0% for “patients with adverse events” (refers to: blood creatine phosphokinase increased; 30 mg once daily, grade 3 maximum intensity).
It gave 0% for “patients with adverse events” (refers to: weight increased; dose not given, grade 3 maximum intensity, all arms).

Sample 4 — read-out: cell-free assay; concentration: 1 µM
Structure (SMILES): C[C@H]1CC[C@H](n2c3cnccc3c3cnc(Nc4ccc5c(n4)CCN(C(=O)CO)C5)nc32)CC1
It gave 60% for remaining signal (BRSK2 (Homo sapiens, UniProt Q8IWQ3)).
It gave 30% for remaining signal (SRPK1 (Homo sapiens, UniProt Q96SB4)).
For PAK3 (Homo sapiens, UniProt O75914): remaining signal read 26%.
The remaining signal was 53% (CDPK1 (Plasmodium falciparum, UniProt P62344)).
The remaining signal was 70% (PAK6 (Homo sapiens, UniProt Q9NQU5)).
PIK3CA (Homo sapiens, UniProt P42336, H1047L) — remaining signal: 99%.

Repeated from above (sample 2):
The remaining binding was 100% (CDK17 (Homo sapiens, UniProt Q00537)).
EGFR (Homo sapiens, UniProt P00533, L858R) — remaining binding: 97%.
For HASPIN (Homo sapiens, UniProt Q8TF76): remaining binding read 79%.
TAOK3 (Homo sapiens, UniProt Q9H2K8) — remaining binding: 82%.
